Experimental data of several laboratories.
Lines come from different studies, so protocols differ. Several values in a cell are separate wells, animals, samples, runs or records. ± marks the error that the study gave.
NR4A1: Nuclear receptor subfamily 4 group A member 1 (NR4A1, Homo sapiens, UniProt P22736)
Tumor necrosis factor receptor superfamily member 9/Nectin-4: Tumor necrosis factor receptor superfamily member 9/Nectin-4 (Homo sapiens, UniProt Q07011+Q96NY8)
TRPV1: Transient receptor potential cation channel subfamily V member 1 (TRPV1, Homo sapiens, UniProt Q8NER1)
T1: ssDNA, aptamer; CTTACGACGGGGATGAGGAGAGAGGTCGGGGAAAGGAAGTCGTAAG
T2: RNA, 2'-deoxy at 34-37 (Thermoanaerobacter tengcongensis); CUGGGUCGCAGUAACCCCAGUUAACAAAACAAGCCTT
T3: RNA A16C/A37U, hybrid riboswitch; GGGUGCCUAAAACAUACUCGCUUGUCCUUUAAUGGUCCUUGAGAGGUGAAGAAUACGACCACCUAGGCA

`COc1cccc2c(Nc3ccc4[nH]c(C(=O)N/N=C/c5ccc(SC)cc5)cc4c3)cc(C)nc12` gave an activation of 0.7 fold (NR4A1; reporter gene, Gal4 hybrid reporter; 3 µM; reference: vehicle).
`CCCC[C@@H]1NC(=O)[C@H](Cc2ccc(O)cc2)NC(=O)[C@@H]2CCCN2C(=O)[C@H](CC(=O)O)NC(=O)[C@H](C)NC(=O)[C@H](Cc2ccccc2)NC(=O)[C@@H]2CSCCC(=O)N3CN(CN(C3)C(=O)CCSC[C@@H](C(=O)N[C@@H](CNC(=O)Cn3cc(CCC(=O)NCCC(=O)N(C)CC(=O)N(C)CC(=O)N(C)CC(=O)N(C)CC(=O)N(C)CC(=O)N(C)CC(=O)N(C)CC(=O)N(C)CC(=O)N(C)CC(=O)N(C)CC(=O)N[C@H]4CSCCC(=O)N5CN6CN(C5)C(=O)CCSC[C@H](NC(=O)[C@@H](CC(=O)O)NC(=O)[C@H](Cc5cccc7ccccc57)NC(=O)[C@@H]5CCCN5C4=O)C(=O)N[C@@H](CCSC)C(=O)N[C@@H](CCCCNC(=N)N)C(=O)N[C@@H](CC(=O)O)C(=O)N[C@@H](Cc4c[nH]c5ccccc45)C(=O)N[C@@H](CO)C(=O)N[C@@H]([C@@H](C)O)C(=O)N4CCC[C@H]4C(=O)N4C[C@H](O)C[C@H]4C(=O)N[C@@H](Cc4c[nH]c5ccccc45)C(=O)N[C@H](C(N)=O)CSCCC6=O)nn3)C(N)=O)NC1=O)C(=O)CCSC[C@H](NC(C)=O)C(=O)N[C@@H](CC(C)(C)C)C(=O)N1CCC[C@H]1C(=O)N[C@@H](CCC(=O)O)C(=O)N[C@H](C)C(=O)N1CCC[C@H]1C(=O)N[C@@H](Cc1ccc(O)cc1)C(=O)N2` gave an Emax of 42 fold (Tumor necrosis factor receptor superfamily member 9/Nectin-4; reporter gene, agonist; HT-1376 coculture with reporter cells; reference: background).
For `CC(=O)N[C@H](C(=O)N1C[C@H](O)C[C@H]1C(=O)NCc1ccc(-c2scnc2C)cc1)C(C)(C)SCCCCCCNC(=O)C[C@@H]1N=C(c2ccc(Cl)cc2)c2c(sc(C)c2C)-n2c(C)nnc21`, the binding stoichiometry was 0.81 ± 0.03 (Bromodomain-containing protein 2, BD2 (BRD2, Homo sapiens, UniProt P25440); ITC; concentration not given, 25 °C, compound in cell, protein in syringe).
For `Oc1ccc(/C=C/c2cc(O)cc(O)c2)cc1`, “ΔH of binding” read -12.1 ± 0.171 kcal/mol (O-methyltransferase (Sorghum bicolor, UniProt A0A1B6PFV1); concentration not given, together with: ADE+).
`Nc1ncnc2c1ncn2[C@@H]1O[C@H](COP(=O)(O)OP(=O)(O)OP(=O)(O)O)[C@@H](O)[C@H]1O` has a Hill slope of 1.04 (P2X purinoceptor 2 (P2RX2, Homo sapiens, UniProt Q9UBL9, D148K); ion current, agonist, two-electrode voltage clamp; Xenopus oocytes; concentration-response curve).
With `O=C(O)c1ccc(Nc2ncc3c(n2)-c2ccc(Cl)cc2C(c2c(F)cccc2F)=NC3)cc1` the remaining activity was 32% (human TrkA(h); kinase activity; 1 µM).
For `COc1cc(CNC(=O)CCCC/C=C/C(C)C)ccc1O`, “open time constant” read 318 ms (TRPV1; channel gating, single-channel inside-out patch; 100 nM, component 4 of four).
`CCC1(O)CCCN(C(=O)c2ccc(-c3ccc(F)c(NC(=O)CCl)c3)cc2)C1` (stereo not drawn) has a protein adduct of 7.5% (DNA dC->dU-editing enzyme APOBEC-3A (Homo sapiens, UniProt P31941); covalent modifier, intact protein mass spectrometry, item: adduct +26691 Da; 500 µM, 1 h, 20-fold molar excess).
`C[C@H]1O[C@@H](O[C@H]2CC[C@@]3(C)[C@@H](CC[C@]4(C)[C@@H]3C=CC3=C5CC(C)(C)CC[C@]5(CO)[C@@H](O)C[C@]34C)[C@]2(C)CO)[C@H](O)[C@@H](O[C@@H]2O[C@H](CO)[C@@H](O)[C@H](O)[C@H]2O)[C@H]1O` — result for “MST normalised fluorescence”: 884 a.u. (SIRT1 (Homo sapiens, UniProt Q96EB6); binding, microscale thermophoresis; 198 nM).
`CC(=O)Nc1nc2c(Oc3cc(-c4ccc(C(F)(F)F)cc4)ncn3)cccc2s1`: “K+ pore BRET signal decrease” roughly 30% (TRPV1; BRET; HEK293T; 10 µM; reference: capsaicin 500 nM).
For `CN(C)c1ccc(Cc2nnc(NS(=O)(=O)c3ccc(N)cc3)s2)cc1`, the Kii was 363 ± 35 µM (Glutathione hydrolase 1 proenzyme, without transmembrane domain (Homo sapiens, UniProt P19440); GSH hydrolysis, uncompetitive inhibitor; 37 °C, binds gamma-glutamyl enzyme, together with: GSH 5-20 µM).
`Nc1ncnc2c1ncn2[C@@H]1O[C@H](COP(=O)(O)OP(=O)(O)O)[C@@H](O)[C@H]1O` gave a Kd of 22.7 µM (T1, ssDNA, aptamer; ITC).
`COc1ccc(-c2n[nH]c(=S)o2)cc1` gave a fluorescence increase of 80.9 ± 1.89% (P2X purinoceptor 2 (P2RX2, Homo sapiens, UniProt Q9UBL9); calcium mobilization; MCF7 stably transfected; 100 µM, together with: ATP 100 µM).
For `Clc1ccc(C(c2c[nH]c3ccccc23)c2c[nH]c3ccccc23)cc1`, the activation was 1.22 fold (NR4A1; reporter gene, Gal4 hybrid reporter; 10 µM; reference: vehicle).
For `Nc1ncnc2[nH]cnc12`, binding read “no binding” (T2, RNA, 2'-deoxy at 34-37 (Thermoanaerobacter tengcongensis); competitor, competitive displacement, Cy5 fluorescence; up to 500 µM).
`Cc1ccc(C(=O)Nc2ccc3c(c2)CN(C2CCC(=O)NC2=O)C3=O)cc1` (stereo not drawn): “degradation rate constant” 1.3 h⁻¹ (Cereblon/Casein kinase I alpha (CSNK1A1/CRBN, Homo sapiens, UniProt P48729+Q96SW2); degrader, live-cell HiBiT kinetic; HEK293 LgBiT; 10 µM).
Under “log2 fold change”, `CCN1CCC[C@H]1CNC(=O)c1c(O)c(Cl)cc(Cl)c1OC` is recorded as 0.705 (Probable G-protein coupled receptor 63 (GPR63, Homo sapiens, UniProt Q9BZJ6); β-arrestin recruitment, TANGO luminescence, item: GPR63; concentration not given; reference: basal luminescence).
`O=c1nc(SCc2cc(F)cc(C(F)(F)F)c2)nc(SCc2ccc3sccc3c2)[nH]1` — result for “ATP hydrolysis rate”: 2.89 µM/min and 2.26 µM/min (TOP2A (Homo sapiens, UniProt P11388); ATPase activity; 1.95 µM, together with: ATP 1 mM).
`NCCCS(=O)(=O)O`: “normalised MST signal” 0.0361 (SLC6A6 (Homo sapiens, UniProt P31641, G62A); binding, microscale thermophoresis; 61 nM, room temperature, together with: 50 nM labelled protein; higher = more binding).
The calcium influx of `Nc1ncnc2c1ncn2[C@@H]1O[C@H](COP(=O)(O)CP(=O)(O)OP(=O)(O)O)[C@@H](O)[C@H]1O` is reported as 4.58% and 5.67% and 0.61% and 6.73% (P2X purinoceptor 1 (P2RX1, Homo sapiens, UniProt P51575); calcium influx; 31.6 nM; reference: ionomycin response).
`Cc1ncsc1-c1ccc(CNC(=O)[C@@H]2C[C@@H](O)CN2C(=O)[C@@H](NC(=O)C2(F)CC2)C(C)(C)C)c(OCCOc2ccc(CN3CCN(c4cc(-c5ccccc5O)nnc4N)CC3)cc2)c1`: “cooperativity factor alpha” 12 (Protein polybromo-1, BD5 (PBRM1, Homo sapiens, UniProt Q86U86); ternary complex binding, TR-FRET competition; together with: VCB complex).
For `CCCC[C@@H]1NC(=O)[C@H](Cc2ccc(O)cc2)NC(=O)[C@@H]2CCCN2C(=O)[C@H](CC(=O)O)NC(=O)[C@H](C)NC(=O)[C@H](Cc2ccccc2)NC(=O)[C@@H]2CSCCC(=O)N3CN(CN(C3)C(=O)CCSC[C@@H](C(=O)N[C@@H](C)C(N)=O)NC1=O)C(=O)CCSC[C@H](NC(C)=O)C(=O)N[C@@H](CC(C)(C)C)C(=O)N1CCC[C@H]1C(=O)N[C@@H](CCCCNC(=O)CCc1cn(CC(=O)N[C@H]3CSCCC(=O)N4CN5CN(C4)C(=O)CCSC[C@H](NC(=O)[C@@H](CC(=O)O)NC(=O)[C@H](Cc4cccc6ccccc46)NC(=O)[C@@H]4CCCN4C3=O)C(=O)N[C@@H](CCSC)C(=O)N[C@@H](CCCCNC(=N)N)C(=O)N[C@@H](CC(=O)O)C(=O)N[C@@H](Cc3c[nH]c4ccccc34)C(=O)N[C@@H](CO)C(=O)N[C@@H]([C@@H](C)O)C(=O)N3CCC[C@H]3C(=O)N3C[C@H](O)C[C@H]3C(=O)N[C@@H](Cc3c[nH]c4ccccc34)C(=O)N[C@H](C(N)=O)CSCCC5=O)nn1)C(=O)N[C@H](C)C(=O)N1CCC[C@H]1C(=O)N[C@@H](Cc1ccc(O)cc1)C(=O)N2`, the Emax was 42 fold (Tumor necrosis factor receptor superfamily member 9/Nectin-4; reporter gene, agonist; HT-1376 coculture with reporter cells; reference: background).
`CN1CCC(CNc2ccc3ncc(-c4cccc(OC(F)(F)F)c4)n3n2)CC1` gave a response of greater than 50% (ADRA1A (Homo sapiens, UniProt P35348); calcium flux; 10 µM; reference: control).
`Cc1cccc(/C=C/C(=O)Nc2cc(-c3ccnc(N4CCOCC4)c3)ccn2)c1` has a binding response of 36.4 RU (NR4A1; SPR; 10.0 µM).
`COCCOCc1ccc(-c2cc3onc(-c4ccccc4)c3c(=O)n2C)cc1` has an activation of 1.26 fold (NR4A1; reporter gene, Gal4 hybrid reporter; 3 µM; reference: vehicle).
With `CC[C@@H]1[C@H](F)C(=O)N[C@@H]1COc1nccc2cc(C(N)=O)c(OC)cc12` the inhibition was -0.9% (PRKCI (Homo sapiens, UniProt P41743); ATP probe binding, KiNativ profiling, item: Lys2 probe site; THP-1 cell lysate; 0.04 mM).
For `O=c1nc(SCc2cc(F)cc(C(F)(F)F)c2)nc(SCc2csc3ccc(Cl)cc23)[nH]1`, the decatenated DNA was 70.3% (TOP2B (Homo sapiens, UniProt Q02880); decatenation; 7.8 µM, replicate 1).
`CN(C)[C@@H]1C(=O)C(C(N)=O)=C(O)[C@@]2(O)C(=O)C3=C(O)c4c(O)cccc4[C@@](C)(O)[C@H]3C[C@@H]12` — result for binding: “binds” (T3, RNA A16C/A37U, hybrid riboswitch; in-line probing; 72 h, Mg2+ 10 mM, K+ 100 mM).
`CC1(C)CC2(C)OC(=O)NC2(C)c2ccccc21` (stereo not drawn) — result for “log fold enrichment”: -0.00682 (FBXW7 (Homo sapiens, UniProt Q969H0); binding, affinity selection mass spectrometry; reference: other proteins in batch).
Under “time to peak”, `c1ccc(C(NCc2cccnc2)(c2ccccc2)c2ccccc2)cc1` is recorded as 68 ± 6 ms (KCNQ1 (Homo sapiens, UniProt P51787); whole-cell patch clamp; 300 pM).
The binding stoichiometry of `CC(=O)N[C@H]1[C@@H](OC(C)C(N)C(=O)O)O[C@H](CO[C@]2(C(=O)O)C[C@H](O)[C@@H](NC(C)=O)[C@H]([C@H](O)[C@H](O)CO)O2)[C@H](O)[C@@H]1O` (stereo partly drawn) is reported as 1.36 ± 0.06 sites (CLEC10A, carbohydrate recognition domain (Homo sapiens, UniProt Q8IUN9); binding to carbohydrate recognition domain, ITC, single-site model; concentration not given, 293 K).
For `CC(=O)N[C@H](C(=O)N[C@@H](CC(N)=O)C(=O)N[C@@H](CCCCN)C(=O)N1CCC[C@H]1C(=O)N[C@@H](CC(C)C)C(=O)N1CCC[C@H]1C(=O)N1CCC[C@H]1C(=O)N[C@@H](CC(C)C)C(=O)N1CCC[C@H]1C(=O)N[C@H](C(=O)N[C@@H](C)C(N)=O)C(C)C)C(C)C`, the peak area was 65 ± 1% (High osmolarity signaling protein SHO1, SH3 domain (SHO1, Saccharomyces cerevisiae, UniProt P40073); ligand binding, FTIR spectroscopy, item: asymmetric stretch band B; pH 7.0, SHO1 complex, together with: 4 mM peptide).
`Nc1nc2c(ncn2[C@@H]2O[C@H](COP(=O)(O)O)[C@@H](O)[C@H]2O)c(=O)[nH]1` gave a reaction rate of 25.1 s⁻¹ and 20.4 s⁻¹ and 23.7 s⁻¹ (GUK1 (Homo sapiens, UniProt Q16774, T83A); enzyme activity, NADH-coupled; 500 µM).

A few entries again:
`C[C@H]1O[C@@H](O[C@H]2CC[C@@]3(C)[C@@H](CC[C@]4(C)[C@@H]3C=CC3=C5CC(C)(C)CC[C@]5(CO)[C@@H](O)C[C@]34C)[C@]2(C)CO)[C@H](O)[C@@H](O[C@@H]2O[C@H](CO)[C@@H](O)[C@H](O)[C@H]2O)[C@H]1O` — result for “MST normalised fluorescence”: 884 a.u. (SIRT1 (Homo sapiens, UniProt Q96EB6); binding, microscale thermophoresis; 198 nM).
For `CC(=O)N[C@H](C(=O)N[C@@H](CC(N)=O)C(=O)N[C@@H](CCCCN)C(=O)N1CCC[C@H]1C(=O)N[C@@H](CC(C)C)C(=O)N1CCC[C@H]1C(=O)N1CCC[C@H]1C(=O)N[C@@H](CC(C)C)C(=O)N1CCC[C@H]1C(=O)N[C@H](C(=O)N[C@@H](C)C(N)=O)C(C)C)C(C)C`, the peak area was 65 ± 1% (High osmolarity signaling protein SHO1, SH3 domain (SHO1, Saccharomyces cerevisiae, UniProt P40073); ligand binding, FTIR spectroscopy, item: asymmetric stretch band B; pH 7.0, SHO1 complex, together with: 4 mM peptide).
